Measured values pooled from the literature.
A part holds a random share of what one study measured. Positions count from the first letter of the parent shown.

Study 1
Target: Interferon regulatory factor 5, full length, phosphomimetic (IRF5, Homo sapiens, UniProt Q13568-2, residues 1-514, K96S/S451D/S453D/S456D/S462D)
Method: protein-binding microarray
Form: double-stranded DNA, one strand shown
Sample: in vitro
Tested at: 250 nM
Notes: 60-bp whole probe
Together with: salmon DNA 0.4 mg/ml
Baseline: random background probes
Direction: higher = stronger binding
All sequences stand within: GCCTAGCAC … GTCTTGATTCGCTTGACGCTGCTG
Oligonucleotide	log fluorescence
AGGGCAGGGAGGGGGACAGCGTGCTAG	1.25 z-score
TTAGAACCGGGGTTTCGATTAGTGCTA	6.24 z-score
GACGGTTACCTTTTCCTGACGTGCTAG	0.51 z-score
TTAGAACTGGGGTATCAATTAGTGCTA	0.337 z-score
GGCGATCTCAGTCTCGAGACGTGCTAG	-0.385 z-score
TTAGGACTGGACACTGGTTTAGTGCTA	-0.492 z-score
TTAGGTTTCAGTTTCGATTAGTGCTAG	10.6 z-score
AGCCATCTGCAGCAGGCCCCGTGCTAG	-0.595 z-score
GACGGTTCCGGTTTCGGAACGTGCTAG	5.7 z-score
TTAGGTCTCGGTATCGGTCAGTGCTAG	4.42 z-score

Study 2
Target: CCND3, cyclin fold, Cln2 fusion (human)
Method: yeast growth competition, sequencing
Sample: yeast
Notes: weak parent motif
Baseline: not given
Direction: higher = stronger binding
Starting sequence: E2F1 docking peptide (human); PPVKRRLDLETDH
Variant	normalised enrichment score
PPAKRRLDLETDH [V3A]	0.174
PSVKRRLDLETDH [P2S]	0.1
PPVKRRLDLNTDH [E10N]	0.189
NPVKRRLDLETDH [P1N]	0.17
PPVKRHLDLETDH [R6H]	0.178
PPVKHRLDLETDH [R5H]	0.147
PPVKRRLDLLTDH [E10L]	0.189
MPVKRRLDLETDH [P1M]	0.148
PPEKRRLDLETDH [V3E]	0.00143
PPHKRRLDLETDH [V3H]	0.0947
PPVKRRLPLETDH [D8P]	0.0842

Study 3
Target: ABI1, truncated, D143A, DHFR fusion (Arabidopsis thaliana)
Method: DHFR PCA, deep sequencing
Sample: yeast
Notes: methotrexate growth selection, single substitutions
Together with: (+)-ABA 710 µM
Baseline: wild-type fitted maximum
Direction: higher = stronger binding
Starting sequence: PYL1, truncated, DHFR fusion (Arabidopsis thaliana); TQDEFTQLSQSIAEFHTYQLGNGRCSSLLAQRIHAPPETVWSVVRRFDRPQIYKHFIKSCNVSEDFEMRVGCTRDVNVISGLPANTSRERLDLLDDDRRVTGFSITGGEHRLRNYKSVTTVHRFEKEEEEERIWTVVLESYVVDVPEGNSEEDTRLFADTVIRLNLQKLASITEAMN
Variant	relative binding score [%]
T17N	96.5
I133L	112
S117M	27.4
P50T	19.6
D92M	86.7
Q31Y	77
S11F	92.8

Other studies, line by line
Substance	target	test	test system	conditions	scale	endpoint	value
PhoQ, residues 284 288 289 292 302 303 SLANIV	PhoP, residues 12 14 15 18 19 NIMAP (Escherichia coli, UniProt P23836)	Sort-seq, refers to: YFP reporter	E. coli	PhoQ-PhoP variant library, together with: 10 µM Mg2+	baseline: high Mg2+ state, higher = stronger signaling	fold induction	0.668

For quick reference, copied from above (study 1):
Oligonucleotide	log fluorescence
TTAGAACTGGGGTATCAATTAGTGCTA	0.337 z-score
GGCGATCTCAGTCTCGAGACGTGCTAG	-0.385 z-score
